Published values gathered from unrelated publications.
Compare with care: the assays were run in different laboratories. “And” joins repeats or separate records; there may be more than shown. ± gives the spread as reported.

The CLint of `C[C@](C(=O)NC1CCC(F)(F)CC1)(c1cncnc1)N(C(=O)[C@H](F)Cl)c1ccc(OC(F)(F)F)cc1` is reported as 107 µL/min/mg (human liver microsomes; concentration not given, pH 7.4).
The fu of `COc1ccc2c(c1)CN(C(=O)CCN1CCC(Cc3ccccc3)CC1)CCS2` is reported as 0.054 (dog plasma; 250 ng/mL).
Under “unbound intrinsic clearance”, `CN(C(=O)C(C)(C)c1cc(C(F)(F)F)cc(C(F)(F)F)c1)c1cnc(N2C[C@H]3COC(O)CN3C[C@H]2CO)cc1-c1ccc(F)cc1CO` (some centres unmarked) is recorded as 211 µL/min/mg (pooled human liver microsomes; pH 7.4, substrate depletion).
The fu of `Fc1ccc(OCC2CN(Cc3ncn4ccccc34)CCC2(F)F)cc1` (centres unmarked) is reported as 0.0076 (equilibrium dialysis; human plasma).
With `CC(C)CC(=O)Nc1ccc(C2CCCCC2)cc1` the hepatic clearance was 86 mL/min/kg (liver microsome stability; mouse liver microsomes; 1 µM).
The Tmax of `C/C(N)=N/C(=N\S(=O)(=O)c1ccc(C(F)(F)F)cc1)N1C[C@H](c2ccccc2)C(c2ccc(Cl)cc2)=N1` is reported as 30 min (C57BL/6 mouse, brain; intravenous, 10 mg/kg).
With `CCN(CC)c1ccc2c(c1)O[B-]1(c3ccccc3C#N)OC(=O)C(c3ccccc3)=N[N+]1=C2CC(C)C` (centres unmarked) the fluorescence lifetime was 2.97 ns (toluene).
`COC1C=COC2(C)Oc3c(C)c(O)c4c(c3C2=O)C2=NC3(CCN(CC(C)C)CC3)NC2=C(NC(=O)C(C)=CC=CC(C)C(O)C(C)C(O)C(C)C(OC(=O)Nc2cnccn2)C1C)C4=O` (centres unmarked) gave an AUC of 107000 ng·h/mL (CD-1 mouse, plasma; oral, 12.5 mg/kg, efficacy dose).
`O=C(Nc1ccc(C2CCCCC2)cc1)C1CC1` gave a hepatic clearance of 37 mL/min/kg (liver microsome stability; cynomolgus liver microsomes; 1 µM).
`C=C(NC(=O)c1csc(-c2nc3c(cc2O)-c2nc(cs2)C(=O)NC(C(C)O)C(=O)NC(=C(C)OC)c2nc(cs2)C(=O)NC2c4nc(cs4)C(=O)NC(COC(=O)c4c5c6c(cccc6n4O)COC(=O)C(OC4CC(C)(O)C(N(C)C)C(C)O4)C2OC5)c2nc-3cs2)n1)C(N)=O` (centres unmarked) gave an AUC(0-inf) of 2070 ng·h/mL (Sprague-Dawley rats, female, plasma; intravenous infusion, 6 mg/kg, day 1, multiple dosing).
For `Cc1cc2c(cc1O)C=C1C=CC(=O)C(C)(C)[C@H]1CC2`, the MRT(0-inf) was 36 min (male Sprague-Dawley rat, plasma; intravenous, 2 mg/kg).
With `F[C@@H]1[C@H](c2ccc(-c3cnc(N4CCOCC4)nc3)cc2)[C@H](F)[C@H](F)C[C@@H]1F` the hepatic clearance was 18 mL/min/kg (hepatocyte stability; cryopreserved rat hepatocytes; 1 µM).
`Cc1cc(-c2ccc(C(=O)[C@@H]3CCCC[C@H]3C(=O)Nc3cnn4c3C(=O)NCC4)cc2)[nH]n1` — result for “recovery of radioactivity per interval”: 0.39% (human, faeces; oral, 200 mg, 168-192 h; reference: dose).
`C=C1C[C@]2(C(=O)OC)C=C(C(=O)Nc3cccc(C(=O)Nc4ccc(Nc5nccc(-c6cccnc6)n5)c(C)c4)c3)C(=O)[C@H]1C2` gave a compound remaining of 47% (Wistar rat, male, plasma; 10 µM, 5 min).
With `OCCn1nc(-c2ccccc2)c2c(Cl)c(-c3ccccc3)nnc21` the AUC was 5.7 µM·h (mouse juvenile P6, plasma; intraperitoneal, 10 mg/kg).
`O=C(Nc1cnccc1-c1ccc([18F])nc1)c1ccnc(NC(=O)C2CC2)c1` gave an SUV of 6.02 (PET imaging; FVB/NJ mice, both sexes, liver; intravenous, 120 min post-injection).
`CC[C@H](C)[C@H](NC(=O)[C@@H](NC(=O)[C@H](CCCCN)NC(=O)[C@@H](NC(=O)[C@@H]1CCCN1[C@@H]1CN(C(=O)[C@@H](NC(=O)[C@@H](NC(=O)[C@@H](NC(=O)[C@@H](NC(=O)[C@@H](NC(=O)[C@@H](N)CCCCN)C(C)C)C(C)C)C(C)C)[C@@H](C)CC)[C@@H](C)O)CC[C@H]1NS(=O)(=O)c1ccc(C)cc1)[C@@H](C)O)C(C)C)C(=O)N[C@@H](CC(C)C)C(=O)N[C@@H](Cc1c[nH]cn1)C(N)=O` has a helix content of 12.1% (CD spectroscopy; 20 mM phosphate buffer; 125 µM, 20 °C).
The hepatic clearance of `N#Cc1cccc(-c2ccc([C@H]3[C@@H](F)[C@@H](F)C[C@@H](F)[C@H]3F)cc2)c1` is reported as 4.9 mL/min/kg (liver microsome stability; cynomolgus liver microsomes; 1 µM).
For `OC1(C(F)(F)F)CCN(c2nc(Nc3ccnc(C(F)(F)F)c3)nc(-c3cccc(C(F)(F)F)n3)n2)C1` (centres unmarked), the AUC(0-24 h) was 13600 ± 3040 ng·h/mL (Sprague-Dawley rat, both sexes, plasma; oral gavage, 5 mg/kg, day 14).
For `CCCCCCCOc1ccc(CC[C@](N)(CO)COP(=O)(O)O)cc1C(F)(F)F`, the AUCtau was 10.9 ng·h/mL (healthy male humans, plasma; 0.25 mg amiselimod, day 1, mean).
`CC(C)c1nc(N(C)S(C)(=O)=O)nc(-c2ccc(F)cc2)c1/C=C/[C@@H](O)C[C@@H](O)CC(=O)O` has an AUC(0-inf) decrease of 30% (human; oral, dose not given, with: omaveloxolone; reference: substrate alone).
For `CCN(CC)c1ccc2c(c1)O[B-]1(c3ccccc3C#N)OC(=O)C(c3ccccc3)=N[N+]1=C2` (centres unmarked), “fluorescence emission maximum” read 515 nm (toluene).
`O=C(O)CCCOc1ccc([18F])cc1-c1cc(-c2ccccc2C(F)(F)F)n(-c2ccccc2)n1` has a tissue uptake of 0.73 ± 0.05 %ID/g (mouse, large intestine; intravenous, dose not given, 5 min).
For `CN(C)C(=O)CNC(=O)c1ccc(C2CCCCC2)cc1`, the hepatic clearance was 47 mL/min/kg (hepatocyte stability; cryopreserved rat hepatocytes; 1 µM).
The SUV of `O=C(Nc1cnccc1-c1ccc([18F])cc1)c1ccnc(NC(=O)C2CC2)c1` is reported as 1.04 ± 0.41 (FVB/NJ mouse, both sexes, brain; intravenous, 2 min post-injection, with: P-gp inhibitor tariquidar 15 mg/kg iv).
The tumour-to-bone ratio of `COc1cccc(OC)c1-c1cc(C(=O)NC2(C(=O)O)C3CC4CC(C3)CC2C4)nn1-c1ccc(C(=O)NCCNC(=O)[C@H](CCCCNC(=O)[C@H](CC(C)C)NC(=O)C2OC2C(=O)O)NC(=O)CN2CCN(CC(=O)[O-])CCN(CC(=O)[O-])CCN(CC(=O)[O-])CC2)cc1C(C)C.[177Lu+3]` (mixture of isomers) is reported as 15.5 (mouse, HT-29 xenograft; 4 h post injection, biodistribution; reference: tumour over bone uptake).
`C=CC(=O)Nc1cc(Nc2nccc(-c3c[nH]c4ccccc34)n2)c(OC)cc1N(C)CCN(C)C` has a recovery of 90.2% (human plasma; 5 h, storage stability, medium QC sample).
`Cc1noc(C)c1Cn1cc(N2C(=O)CN(Cc3cccc(O[C@@H]4O[C@H](C(=O)O)[C@@H](O)[C@H](O)[C@H]4O)c3)C2=O)cn1` gave a plasma concentration of 5570 ng/mL (Sprague-Dawley rat, male; oral, 30 mg/kg of parent drug, 1 h).
With `CCn1cc(-c2cc(Cn3ccnc3)cc3c2CCN([C@H](c2cc(OC)ccn2)C2CC2)C3=O)c(C(F)(F)F)n1` the AUC extrapolated was 1.2% (CD-1 mouse, male, plasma; oral, 50 mg/kg).
`O=C(NS(=O)(=O)c1cccs1)c1cc2ccccc2n1Cc1ccc(Br)c2ccccc12` — result for “volume of distribution (steady state)”: 0.507 L/kg (Sprague-Dawley rat, male, plasma; intravenous, 2 mg/kg).
`Cc1nc(N)nc2c1C(=O)N[C@@H](c1ccc(F)cc1-c1cccc(O[11CH3])n1)C2` gave a tracer uptake of 3 ± 0.5 %ID (ex vivo biodistribution; mice, U87 subcutaneous xenograft, kidneys; 60 min post-injection, baseline, vehicle pre-treatment).
`O=C([O-])CN1CCN(CC(=O)[O-])CCN(C(CO)C(O)CO)CCN(CC(=O)[O-])CC1.[Dy+3]` (centres unmarked): “cumulative fecal excretion” 0.04% (ICP-MS; cynomolgus monkey, feces; 1 days post-injection; reference: dose).
For `COc1ccc(CCC(C)N2CCc3cc(O[11CH3])c(OC)cc3C2)cc1` (racemic), “parent compound fraction” read 96.6 ± 0.9% (brain homogenate; injection, 30 min; reference: radioactivity).
`C=C[C@]1(C)C[C@@H](OC(=O)CSc2ccc(NC(=O)c3ccco3)cc2)[C@]2(C)[C@H](C)CC[C@]3(CCC(=O)[C@H]32)[C@@H](C)[C@@H]1O` has a plasma concentration of 3820 ng/mL and 2090 ng/mL and 3650 ng/mL and 4760 ng/mL and 6280 ng/mL and 5680 ng/mL and 3740 ng/mL and 4960 ng/mL (Mycoplasma gallisepticum-infected chickens, plasma; intramuscular, 40 mg/kg, 0.25 h).
`COC(=O)[C@@]1(C)C=C(C(=O)Nc2cccc(C(=O)Nc3ccc(Nc4nccc(-c5cccnc5)n4)c(C)c3)c2)C(=O)CC1` has a compound remaining of 1.4% (metabolic stability; Wistar rat, male, primary hepatocytes; 1 µM, 90 min).
`COc1cccc(OC)c1-c1cc(C(=O)NC2(C(=O)O)C3CC4CC(C3)CC2C4)nn1-c1ccc(C(=O)N(C)CCOCCOCCN(C)C(=O)[C@H](CCCCNC(=O)[C@H](CC(C)C)NC(=O)C2OC2C(=O)O)NC(=O)CN2CCN(CC(=O)[O-])CCN(CC(=O)[O-])CCN(CC(=O)[O-])CC2)cc1C(C)C.[177Lu+3]` (mixture of isomers) gave a tumour-to-kidney ratio of 0.39 (mouse, HT-29 xenograft; 4 h post injection, biodistribution; reference: tumour over kidney uptake).
`CC(=O)Nc1ccc(C2CCCCC2)cc1` gave a hepatic clearance of 53 mL/min/kg (liver microsome stability; rat liver microsomes; 1 µM).
`CC(C)C[C@H](NC(=O)[C@H](CO)NC(=O)[C@H](CCC(=O)O)NC(=O)CNC(=O)[C@H](C)NC(=O)OCc1ccccc1)C(=O)N[C@@H](Cc1ccc(O)cc1)C(=O)N[C@@H](CCC(=O)O)C(N)=O` gave a compound remaining of 86.4% (metabolic stability; human, plasma; 1 h).
`CN1C(=O)[C@@H](Cc2ccc(O)c(I)c2)NC(=O)CNC(=O)[C@H](Cc2ccc3ccccc3c2)NC(=O)[C@H](CCCNC(=N)N)NC(=O)[C@H]1CCCNC(=O)c1ccc(CNC(=O)CN2CCN(CC(=O)O)CCN(CC(=O)O)CCN(CC(=O)O)CC2)cc1` [lutetium-177 labelled] — result for “total absorbed dose”: 0.019 mGy/MBq (1; human, extrapolated from mouse, gallbladder wall).
`O=C(N1CCCCC1)C12CC(c3ccccc3)(C1)C2(F)F` has a compound remaining of 91% (metabolic stability; human, liver microsomes; 2 µM, 15 min, pH 7.4).
The tumour-to-kidney ratio of `COc1cccc(OC)c1-c1cc(C(=O)NC2(C(=O)O)C3CC4CC(C3)CC2C4)nn1-c1ccc(C(=O)N(C)CCCN(C)C(=O)[C@H](CCCCNC(=O)[C@H](CC(C)C)NC(=O)C2OC2C(=O)O)NC(=O)CN2CCN(CC(=O)[O-])CCN(CC(=O)[O-])CCN(CC(=O)[O-])CC2)cc1C(C)C.[177Lu+3]` (mixture of isomers) is reported as 0.6 (mouse, HT-29 xenograft; 72 h post injection, biodistribution; reference: tumour over kidney uptake).
For `CN1CCC[C@]1(C)/C=C/S(=O)(=O)NC(=O)Nc1c2c(cc3c1CCC3)CCC2`, “subjects with adverse event” read 16.7% (refers to: respiratory, thoracic, mediastinal disorders; human; oral, 50 mg twice daily, 14 days, multiple ascending dose).
`COc1cccc(OC)c1-c1cc(C(=O)NC2(C(=O)O)C3CC4CC(C3)CC2C4)nn1-c1ccc(C(=O)N(C)CCOCCN(C)C(=O)[C@H](CCCCNC(=O)[C@H](CC(C)C)NC(=O)C2OC2C(=O)O)NC(=O)CN2CCN(CC(=O)[O-])CCN(CC(=O)[O-])CCN(CC(=O)[O-])CC2)cc1C(C)C.[177Lu+3]` (mixture of isomers) gave a tissue uptake of 0.24 %ID/g (mouse HT-29 xenograft, large intestine; 24 h post injection, biodistribution).
The recovery of `C=CC(=O)Nc1cc(Nc2nccc(-c3cn(C)c4ccccc34)n2)c(OC)cc1N(C)CCNC` is reported as 98.8% (storage stability; human dried blood spot; 30 d, -80 °C, MQC level).
The CLint of `O=C(CN1CN(c2ccccc2)C2(CCN(C(=O)c3cc4cn[nH]c4cn3)CC2)C1=O)NCC(F)(F)F` is reported as 30 µL/min/mg protein (human liver microsomes).
For `CCCNC(=O)[C@H]1O[C@@H]1C(=O)N[C@H](C(=O)N1CCC[C@H]1C(=O)OCC1=C2C(C)=CC(C)=[N+]2[B-](C)(C)n2c(C)cc(C)c21)[C@@H](C)CC`, “photodecomposition quantum yield” read 2.46 ± 0.19% (Nd:YAG laser irradiation; methanol; irradiation at 532 nm).
`O=C(CN1CCCCC1)Nc1ccc([C@H]2[C@@H](F)[C@@H](F)C[C@@H](F)[C@H]2F)cc1` has a hepatic clearance of 9.9 mL/min/kg (cryopreserved human hepatocytes; 1 µM).
`[2H]C([2H])([2H])Oc1cc2c(cc1OC([2H])([2H])[2H])[C@H]1C[C@@H](O)[C@H](CC(C)C)CN1CC2` gave a Tlag of 0.33 h (refers to: deuterated analyte; healthy human male, plasma; oral, 25 mg, median, [14C]-deutetrabenazine dosed).
`O=C(CN1CCOCC1)Nc1ccc([C@H]2[C@@H](F)[C@@H](F)C[C@@H](F)[C@H]2F)cc1` gave a hepatic clearance of 3.9 mL/min/kg (liver microsome stability; human liver microsomes; 1 µM, without NADPH).
Under “AE leading to discontinuation”, `CC[C@H](C)[C@@H]1NC(=O)[C@H](Cc2ccc(O)cc2)NC(=O)CCCSC[C@@H](C(=O)N(CC(=O)N[C@@H](CC(C)C)C(=O)NCC(N)=O)Cc2ccc(F)cc2)NC(=O)[C@H](CC(N)=O)NC(=O)[C@H](CCC(N)=O)NC1=O` is recorded as 0% (human; intranasal, 100 µg single dose).
